Measurements from different studies.
Each line is one published result; not all experiments were run side by side. ± gives the spread as reported.

COc1cc(C(=O)NC2CCN(C)CC2)c(F)cc1Nc1ncc(C(F)(F)F)c(Oc2cccc3c2C(=O)N(C)C3)n1 — renal clearance (0-24 h) (human patients, urine and plasma; oral, 25 mg single dose, geometric mean): 9.91 mL/min
C=CCn1c(=O)c2cnc(Nc3ccc(N4CCN(C)CC4)cc3)nc2n1-c1cccc(C(C)(C)O)n1 — Tmax (human; oral, 150 mg twice daily, cycle 1 day 17, added: durvalumab 1500 mg IV; median): 2 h
CCc1cc(C(=O)NC)c2nccc(N3CCc4c(cc(Cn5ccnc5)cc4-c4cn(C)nc4C(F)(F)F)C3=O)c2c1 — reticulocyte haemoglobin content (Sprague Dawley rats; oral, 100 mg/kg once daily, 7 days): 20.6 ± 0.42 pg
CN(C(=O)n1cnc(-c2ccc[n+]([O-])c2)c1)[C@H]1CC[C@H](O)CC1 — tissue concentration (rat, hippocampus; oral, 10 mg/kg daily for 5 days, 48 h): 13.3 ± 0.4 ng/g
COc1ccc2[nH]c([S@+]([O-])Cc3ncc(C)c(OC)c3C)nc2c1 — AUC (human, dried blood spots; oral, 10 mg omeprazole, added: voriconazole): 593 ng·h/mL
CCN1CCN(Cc2ccc(Nc3ncc(F)c(-c4cc(F)c5nc(C)n(C(C)C)c5c4)n3)nc2)CC1 — Vss/F (healthy human, fasted; oral, 150 mg, 3 x 50 mg capsules): 1740 L
O=C(Nc1nc2cccc(-c3ccc(CN4CCS(=O)(=O)CC4)cc3)n2n1)C1CC1 — treatment-emergent adverse events (item: vascular disorders; rheumatoid arthritis patients; oral, 75 mg once daily, 4 weeks, any relatedness): 0%
CC(C)(Sc1ccncc1-c1ccc(C#N)c2ccccc12)C(=O)O — amount excreted in urine (0-24 h) (human, urine; oral, 10 mg, added: febuxostat 40 mg): 153 µg
CCCCOC(=O)N1CCN(C(=O)[C@H](CP(=O)(O)O)NC(=O)c2cc(N3CC[C@H](OC)C3)nc(-c3ccccc3)n2)CC1 — change in QTcB interval (human; subcutaneous, 8 mg, 24 h post-dose; relative to: baseline): -0.5 ± 20.8 ms
Cn1cc(Nc2nccc(-c3ccc4c(c3)CN(C3COC3)CC[C@H]4NC(=O)c3cn(C(C)(C)C)nn3)n2)cn1 — granulocyte count change (human, whole blood; 300 mg twice daily, day 7; relative to: pre-dose baseline): 16.9%
C[C@@H](Nc1cc(F)cc(F)c1)c1cc(C(=O)N(C)C)cc2c(=O)cc(N3CCOCC3)oc12 — patients discontinuing for AE (item: Syncope; advanced solid tumour patients; oral, dose not given, dose expansion): 0%
C=CC(=O)NC1CCN(c2ncc3ncnc(Nc4ccc(Oc5ccc6c(c5)ncn6C)c(C)c4)c3n2)CC1 — adverse events incidence (item: nervous system disorders (SOC); human male; oral, dose not given, CTCAE on-treatment AEs): 0%
c1ccc2c(c1)ccc1ccccc12 — literature range factor (PDMS-water partitioning; PAH compilation; relative to: maximum over minimum K): 6
C=CC(=O)Nc1cc(Nc2nccc(-c3cn(C4CC4)c4ccccc34)n2)c(OC)cc1N(C)CCN(C)C — BASO percentage (BALB/c nude mouse, LU0387 xenograft, blood; oral, 40 mg/kg): 0.06 ± 0.0245%
CN[C@@H]1COc2c(S(=O)(=O)NC(=O)Nc3c4c(cc5c3CCC5)CCC4)cnn2C1 — renal clearance (human, urine; oral, 150 mg, 0-48 h): 7.32 mL/min
NC(=O)c1cc(Oc2ccc(NC(=O)Nc3ccc(Cl)c(C(F)(F)F)c3)c(F)c2)cc[n+]1[O-] — accuracy (short-term stability; mouse plasma; 750 ng/mL, 8 h, room temperature): 100%
COc1cc(Nc2ncc3c(n2)-c2ccc(Cl)cc2C(c2c(F)cccc2OC)=NC3)ccc1C(=O)O — patients with adverse event (item: Hypophosphatemia, grade 1; cancer patients, phase 1/2; oral, dose not given, added: pembrolizumab): 17%
COc1cccc(OC)c1-c1cc(C(=O)NC2(C(=O)O)C3CC4CC(C3)CC2C4)nn1-c1ccc(C(=O)N(C)CCCN(C)CCCN(C)C(=O)CN2CCN(CC(=O)[O-])CCN(CC(=O)[O-])CCN(CC(=O)[O-])CC2)cc1C(C)C.[177Lu+3] (stereo not drawn) — tumour-to-blood ratio (mouse, HT-29 xenograft; 24 h post injection, biodistribution; relative to: tumour over blood uptake): 299
CCn1cc(C(=O)N2CCOCC2)c(=O)c2cc(NC3Cc4ccccc4C3)cnc21 — Cmax (human, fed; oral suspension, 2000 mg/day twice daily, day 1, arithmetic mean): 1360 ng/mL
CN[C@H]1C(=O)N[C@@H]2Cc3ccc(cc3)Oc3cc4cc(c3O[C@@H]3O[C@H](C(=O)O)[C@@H](O)[C@H](O)[C@H]3NC(=O)CCCCCCCCC(C)C)Oc3ccc(cc3Cl)[C@@H](O)[C@@H]3NC(=O)[C@H](NC(=O)[C@@H]4NC(=O)[C@@H](NC2=O)c2cc(cc(O)c2Cl)Oc2cc1ccc2O)c1ccc(O)c(c1)-c1c(O[C@H]2O[C@H](CO)[C@@H](O)[C@H](O)[C@@H]2O)cc(O)cc1[C@@H](C(=O)NCCCN(C)C)NC3=O — central volume of distribution (population PK model; paediatric patients; dose not given, reference weight 70 kg): 4.58 L
O=C(O)C1=CO[C@@H](O[C@@H]2O[C@H](CO)[C@@H](O)[C@H](O)[C@H]2O)[C@@H]2C(CO)=CC[C@H]12 — accuracy (post-procedure stability; rat plasma; 200 ng/mL, 3 h, room temperature): 115%
CCN(CC)CCNC(=O)c1cc(Cl)c(N)cc1OC — unbound fraction in cells (ultrafiltration; dog, cell homogenate; 1 µM, 15 min): 0.17
CC(C)[C@H](C(=O)Nc1ccc(C(=O)NO)cc1)c1ccccc1 — accuracy (whole blood; 100 ng/mL, 0 h, 4 °C, stability on ice): 107%
O=C(O)CCC(=O)O.[2H]C([2H])([2H])Oc1cc(C)c2[nH]ccc2c1CN1CC[C@@H](C2CC2)C[C@H]1c1ccc(C(=O)O)cc1 — TEAE urinary sediment detected (healthy Chinese subjects; 400 mg, single ascending dose): 0%
CO[C@H]1C[C@@H]2CC[C@@H](C)[C@@](O)(O2)C(=O)C(=O)N2CCCC[C@H]2C(=O)O[C@H]([C@H](C)C[C@@H]2CC[C@@H](O)[C@H](OC)C2)CC(=O)[C@H](C)/C=C(\C)[C@@H](O)[C@@H](OC)C(=O)[C@H](C)C[C@H](C)/C=C/C=C/C=C/1C — heart rate (healthy adult horses; oral, 0.06 mg/kg, 2 h): 34.5 ± 2.8 beats/min
CC(F)(F)c1nc2nc(CO)cc(Nc3ccc(S(F)(F)(F)(F)F)cc3)n2n1 — AUC(0-inf), metabolite (LC-MS/MS; malaria patients, plasma; oral, 600 mg of parent drug): 389000 ng·h/mL
CNC(=O)c1ccc(-c2cnc3ncc(Cc4ccc5ncccc5c4)n3n2)cc1F — patients with adverse event (item: Diarrhea, all grades; hepatocellular carcinoma patients; oral, 600 mg twice daily, expansion cohort, any causality): 36%
N#Cc1ccc2c(c1)[C@H]1CCCN(C(=O)c3ccc4[nH]cnc4c3)[C@H]1C2 — pre-dose plasma concentration (human, plasma; 240 mg once daily, day 14): 1910 nmol/L
COC(=O)C1=CO[C@@H](O[C@@H]2O[C@H](CO)[C@@H](O)[C@H](O)[C@H]2O)[C@@H]2C(CO)=CC[C@H]12 — accuracy (three freeze-thaw cycles; rat plasma; 1000 ng/mL, -70 °C freeze): 93.6%
N#Cc1ccc2c(c1)[C@H]1CCCN(C(=O)c3ccc4[nH]cnc4c3)[C@H]1C2 — total testosterone level (human males; 20 mg, day 15): 11 nmol/L
CN1CC(=O)N2[C@H](c3ccc4c(c3)OCO4)c3[nH]c4ccccc4c3C[C@@H]2C1=O — accuracy (human plasma; 1.50 ng/mL, 74 days, long-term storage -70 °C): 99.5%
Cc1cc(C)c(CNC(=O)c2cc(Cl)c3c(c2C)O[C@@](C)([C@H]2CC[C@H](N(C)C)CC2)O3)c(=O)[nH]1 — patients with TEAE (item: Anemia; human patients; oral, 200 mg once daily, 1 day onset day 14): 8.3%
CNCCOC12CC3(C)CC(C)(CC(Cn4ncc(-c5ccc(N6CCc7cccc(C(=O)Nc8nc9ccccc9s8)c7C6)nc5C(=O)O)c4C)(C3)C1)C2 — plasma concentration (anaesthetised male beagle dogs; intravenous bolus, 0.03 mg/kg, 120 min): 0 ng/mL
C[C@@H]1CCO[C@H]2Cn3cc(C(=O)NCc4ccc(F)cc4F)c(=O)c(O)c3C(=O)N12 — AUC(0-24) (population PK, post-hoc; infants aged ≥1 months, 3 to <6 kg, plasma; oral, 5 mg dispersible tablet, steady state, geometric mean): 45900 ng·h/mL
FC(F)(F)c1ccc(CNc2ccc(Cc3c[nH]c4ncc(Cl)cc34)cn2)cn1 — treatment-related adverse events (item: Hypertension; patients with advanced solid tumours, non-TGCT cohort; oral, 1000 mg/day, any grade): 2%
Cn1cc([C@H]2C[C@H]3CSC(N)=N[C@@]3(c3ccc(F)cc3F)CO2)cn1 — brain concentration (male 129/SVE mouse, brain; subcutaneous, 50 mg/kg, 9 h): 2470 nM
Cc1c(-c2ccc(N3CCc4cccc(C(=O)Nc5nc6ccccc6s5)c4C3)nc2C(=O)O)cnn1CC12CC3(C)CC(C)(C1)CC(OCCNCC[C@H](O)CO)(C3)C2 — heart rate change (beagle dog, male, anaesthetised; intravenous infusion, 0.3 mg/kg/min, 45 (unit not given); relative to: vehicle): -9%
O=C(Cc1ccc2ccccc2c1)Nc1cc(C2CCC2)[nH]n1 — accuracy (mouse plasma; 375 ng/mL, 40 days, -80 °C, long-term storage stability): 99.6%
N=C(N)NCCNC(=O)C1(Nc2ccccc2)CCN(Cc2ccccc2)CC1 — volume of distribution (Sprague-Dawley rats, both sexes, plasma; intravenous, 2.5 mg/kg, mean of both sexes): 1.2 ± 0.6 L

Excerpt of the above:
Cc1c(-c2ccc(N3CCc4cccc(C(=O)Nc5nc6ccccc6s5)c4C3)nc2C(=O)O)cnn1CC12CC3(C)CC(C)(C1)CC(OCCNCC[C@H](O)CO)(C3)C2 — heart rate change (beagle dog, male, anaesthetised; intravenous infusion, 0.3 mg/kg/min, 45 (unit not given); relative to: vehicle): -9%
CN(C(=O)n1cnc(-c2ccc[n+]([O-])c2)c1)[C@H]1CC[C@H](O)CC1 — tissue concentration (rat, hippocampus; oral, 10 mg/kg daily for 5 days, 48 h): 13.3 ± 0.4 ng/g
CCN(CC)CCNC(=O)c1cc(Cl)c(N)cc1OC — unbound fraction in cells (ultrafiltration; dog, cell homogenate; 1 µM, 15 min): 0.17
